Experimental data of several laboratories.
Compare with care: the assays were run in different laboratories.

| Compound | test | system | conditions | endpoint | value |
| --- | --- | --- | --- | --- | --- |
| CN(C)N=Nc1[nH]cnc1C(N)=O | – | human patients, plasma | intravenous, 1000 mg/m^2 over 1 h, cycle 2 day 1, co-administered with another drug | volume of distribution (Vz) | 25.5 L/m² |
| O=C(/C=C/c1cccc(S(=O)(=O)Nc2ccccc2)c1)NO | – | human, plasma | 2000 mg/m^2, cycle 1 day 1, mean | volume of distribution at steady state | 25.7 L/m² |
| Cc1ccc([C@@H]2O[C@H](CO)[C@@H](O)[C@H](O)[C@H]2O)cc1Cc1ccc(-c2ccc(F)cc2)s1 | – | human, maintenance hemodialysis patients | oral, 100 mg once daily, steady state, median | volume of distribution | 178 L |
| NC(=O)N1c2ccccc2CC(O)c2ccccc21 (stereo not drawn) | population PK modelling | human patients, plasma | dose not given, weight-scaled | volume of distribution | 36.5 L |
| Nc1ccn([C@@H]2O[C@H](CO)[C@@H](O)C2(F)F)c(=O)n1 | HPLC-UV | human, plasma | 800 mg/m^2, mean, after paricalcitol | volume of distribution | 397 L/m² |
| COc1c(OCCCN2CCOCC2)ccc2c1N=C(NC(=O)c1cnc(N)nc1)N1CCN=C21 | – | human | dose not given, compartment 3 | volume of distribution | 522 L |
| COc1ccc(F)cc1C(=O)NCc1ccc(-c2nn([C@@H](C)C(F)(F)F)c(N)c2C(N)=O)cc1 | Simcyp parameter estimation | human | intravenous, 22 µg | volume of single adjusted compartment (VSAC) | 0.17 L/kg |
| CC(=O)O[C@H]1C(=O)[C@@]2(C)[C@H]([C@H](OC(=O)c3ccccc3)[C@]3(O)C[C@H](OC(=O)[C@H](O)[C@@H](NC(=O)c4ccccc4)c4ccccc4)C(C)=C1C3(C)C)[C@]1(OC(C)=O)CO[C@@H]1C[C@@H]2O | – | human, plasma | intravenous infusion, 80 mg/m^2, day 5, with oral co-drug daily | volume of distribution | 196 L |
| CN(C)CCCNC(=O)/C(=C/CCCCC(=O)NO)COc1cccc2ccccc12 | – | human patients | intravenous, 312.5 mg/m2, day 1, single dose, mean | volume of distribution at steady state | 44.6 L |

For quick reference, copied from above:
| Compound | test | system | conditions | endpoint | value |
| --- | --- | --- | --- | --- | --- |
| O=C(/C=C/c1cccc(S(=O)(=O)Nc2ccccc2)c1)NO | – | human, plasma | 2000 mg/m^2, cycle 1 day 1, mean | volume of distribution at steady state | 25.7 L/m² |
